Results collected from several papers.
Protocols differ between the studies behind these lines.
Organism: Staphylococcus aureus

For `CC[C@H](C)[C@H](NC(=O)[C@H](CCCCN)NC(=O)[C@H](CCCCN)NC(=O)CNC(=O)[C@H](CCCCN)NC(=O)[C@H](CC(C)C)NC(=O)[C@H](CCCCN)NC(=O)[C@H](CCCNC(=N)N)NC(=O)[C@@H](NC(=O)[C@H](CC(C)C)NC(=O)[C@H](CCCNC(=N)N)NC(=O)[C@@H](N)CCCNC(=N)N)[C@@H](C)CC)C(=O)N[C@@H](Cc1ccc(O)cc1)C(=O)N[C@@H](CC(C)C)C(=O)N[C@@H](Cc1ccc(O)cc1)C(=O)N[C@@H](Cc1ccccc1)C(=O)N[C@@H](CCCCN)C(=O)N[C@@H](CC(C)C)C(=O)N[C@@H](CCC(N)=O)C(=O)N[C@@H](CC(C)C)C(=O)N[C@@H](CC(C)C)C(=O)N[C@@H](CCCCN)C(=O)N[C@@H](CCCCN)C(N)=O`, the MIC was 16 µM (KCTC 1621, Mueller-Hinton broth; with: 2.5 mM CaCl2).
`CC[C@H](C)[C@H](NC(=O)[C@H](CCCCN)NC(=O)[C@H](CC(=O)O)NC(=O)[C@H](CC(C)C)NC(=O)[C@@H](NC(=O)[C@H](CC(N)=O)NC(=O)[C@H](CC(C)C)NC(=O)[C@@H](NC(=O)[C@H](Cc1ccccc1)NC(=O)[C@H](CCCCN)NC(=O)[C@H](CCCCN)NC(=O)CNC(=O)[C@H](C)NC(=O)[C@H](CC(N)=O)NC(=O)[C@H](CCCCN)NC(=O)[C@H](Cc1ccccc1)NC(=O)[C@H](CC(N)=O)NC(=O)[C@H](CCC(=O)O)NC(=O)[C@H](Cc1c[nH]c2ccccc12)NC(=O)[C@H](CC(C)C)NC(=O)[C@@H](N)CO)[C@@H](C)CC)[C@@H](C)CC)C(=O)N[C@@H](CCCNC(=N)N)C(N)=O` has an MIC of 2 µM (ATCC 6538; overnight, 37 °C, with: 1 mM MgCl2).
`CC[C@H](C)[C@H](NC(=O)[C@H](CC(C)C)NC(=O)[C@H](CCCNC(=N)N)NC(=O)[C@@H](N)CCCNC(=N)N)C(=O)N[C@@H](CCCNC(=N)N)C(=O)N[C@@H](CCCCN)C(=O)N[C@@H](CC(C)C)C(=O)N[C@@H](CCCCN)C(=O)NCC(=O)N1CCC[C@H]1C(=O)N[C@H](C(=O)N[C@H](C(=O)N[C@@H](Cc1ccc(O)cc1)C(=O)N[C@@H](CC(C)C)C(=O)N[C@@H](Cc1ccc(O)cc1)C(=O)N[C@@H](Cc1ccccc1)C(=O)N[C@@H](CCCCN)C(=O)N[C@@H](CC(C)C)C(=O)N[C@@H](CCC(N)=O)C(=O)N[C@@H](CC(C)C)C(=O)N[C@@H](CC(C)C)C(=O)N[C@@H](CCCCN)C(=O)N[C@@H](CCCCN)C(N)=O)[C@@H](C)CC)[C@@H](C)CC` gave an MIC of 64 µM (CCARM 3090, methicillin-resistant, Mueller-Hinton broth; 24 h).
`CC[C@H](C)[C@H](N)C(=O)N[C@@H](CC(C)C)C(=O)NCC(=O)N[C@H](CCCNC(=N)N)C(=O)N[C@H](C(=O)N[C@@H](Cc1c[nH]c2ccccc12)C(=O)N[C@@H](CCCCN)C(=O)NCC(=O)N[C@H](C(=O)N[C@@H](CCCCN)C(=O)N[C@@H](CC(=O)O)C(=O)N[C@H](C(=O)N[C@@H](CC(C)C)C(N)=O)[C@@H](C)CC)[C@@H](C)CC)[C@@H](C)CC` gave an MIC of 25 µM (broth microdilution; ATCC 25923; with: human serum 10%).
The MIC of `CC[C@H](C)[C@H](NC(=O)[C@H](CCCCN)NC(=O)[C@H](Cc1c[nH]c2ccccc12)NC(=O)[C@H](Cc1c[nH]c2ccccc12)NC(=O)[C@H](CCCCN)NC(=O)[C@H](CCCCN)NC(=O)[C@H](CCCCN)NC(=O)[C@H](Cc1c[nH]c2ccccc12)NC(=O)[C@H](CCCCN)NC(=O)[C@H](CCCCN)NC(=O)[C@H](Cc1c[nH]c2ccccc12)NC(=O)[C@H](CCCCN)NC(=O)[C@H](CCCCN)NC(=O)[C@@H](NC(=O)[C@@H](NC(=O)[C@H](CCCCN)NC(=O)[C@@H](N)CCCNC(=N)N)[C@@H](C)CC)[C@@H](C)CC)C(=O)N[C@@H](Cc1c[nH]c2ccccc12)C(=O)N[C@@H](Cc1c[nH]c2ccccc12)C(=O)N[C@@H](CCCCN)C(=O)NCCOCCOCC(N)=O` is reported as 1.9 µg/mL (broth microdilution; 25295).
`CC[C@@H](C)[C@@H](N)C(=O)N[C@@H](C(=O)N[C@H](Cc1ccc(O)cc1)C(=O)N[C@@H](C(=O)N[C@H](CCN)C(=O)N[C@H](CC(C)C)C(=O)N[C@H](CO)C(=O)N[C@H](CCN)C(=O)N[C@@H](C(=O)N[C@H](CCN)C(=O)N[C@H](Cc1c[nH]cn1)C(=O)N[C@H](CCN)C(=O)N[C@H](C)C(=O)N[C@H](CCN)C(=O)N[C@H](CCN)C(N)=O)[C@H](C)CC)[C@H](C)CC)[C@H](C)CC` gave an MIC of 4 µg/mL (ATCC 43300, Mueller-Hinton broth).
`CC(C)C[C@@H](NC(=O)CNC(=O)[C@@H](CCCCN)NC(=O)[C@@H](CC(C)C)NC(=O)[C@@H](CCCCN)NC(=O)[C@@H](CCCNC(=N)N)NC(=O)[C@@H](CC(C)C)NC(=O)[C@@H](CC(C)C)NC(=O)[C@@H](CCCNC(=N)N)NC(=O)[C@H](N)CCCNC(=N)N)C(=O)N[C@H](CCCCN)C(=O)N[C@H](CCCCN)C(=O)N[C@H](Cc1ccc(O)cc1)C(=O)N[C@H](CC(C)C)C(=O)N[C@H](Cc1ccc(O)cc1)C(=O)N[C@H](Cc1ccccc1)C(=O)N[C@H](CCCCN)C(=O)N[C@H](CC(C)C)C(=O)N[C@H](CCC(N)=O)C(=O)N[C@H](CC(C)C)C(=O)N[C@H](CC(C)C)C(=O)N[C@H](CCCCN)C(=O)N[C@H](CCCCN)C(N)=O` gave an MIC of 4 µM (KCTC 1621, Mueller-Hinton broth; with: 2.5 mM CaCl2).
`Cc1onc(-c2ccccc2)c1C(=O)N[C@@H]1C(=O)N2[C@@H]1SC(C)(C)[C@@H]2C(=O)O` has an MIC of greater than 4 µg/mL (1195201 multidrug-resistant).
`c1ccc(CCOC2CCCc3c2[nH]c2ccccc32)cc1` (stereo not drawn) gave an MIC of greater than 16 µg/mL (broth microdilution).
The MIC of `C[C@@H](O)[C@H](NC(=O)[C@H](Cc1ccccc1)NC(=O)[C@H](Cc1c[nH]c2ccccc12)NC(=O)[C@H](Cc1ccccc1)NC(=O)[C@@H](NC(=O)[C@H](Cc1ccccc1)NC(=O)[C@H](CCCNC(=N)N)NC(=O)[C@@H](N)CCCNC(=N)N)[C@@H](C)O)C(=O)N[C@@H](Cc1ccccc1)C(=O)N[C@@H](CCCNC(=N)N)C(=O)N[C@@H](CCCNC(=N)N)C(N)=O` is reported as 128 µM (broth microdilution; 29213, Mueller-Hinton broth; 24 h, 37 °C, lowest concentration, 95% inhibition, with: BSA).
`CC[C@H](C)[C@H](N)C(=O)N[C@@H](CCCNC(=N)N)C(=O)N[C@H](C(=O)N[C@@H](Cc1c[nH]c2ccccc12)C(=O)N[C@@H](Cc1c[nH]c2ccccc12)C(=O)N[C@@H](CCCCN)C(=O)N[C@H](C(=O)N[C@H](C(=O)N[C@@H](CCCNC(=N)N)C(=O)N[C@@H](CCCCN)C(=O)N[C@@H](Cc1c[nH]c2ccccc12)C(=O)N[C@@H](CCCCN)C(=O)N[C@@H](C)C(=O)N[C@H](C(=O)N[C@@H](Cc1c[nH]c2ccccc12)C(=O)N[C@@H](Cc1c[nH]cn1)C(N)=O)[C@@H](C)CC)C(C)C)[C@@H](C)CC)C(C)C` has an MIC of 25 µM (broth dilution; ATCC 25923, Mueller-Hinton broth; 24 h, 37 °C).
With `COc1ccnc(NC(=S)N2CCN(c3ncc(C(F)(F)F)cc3Cl)CC2)c1` the MIC was 3.3 µM (MSSA clinical strain).

Some of these lines once more:
The MIC of `CC[C@H](C)[C@H](NC(=O)[C@H](CCCCN)NC(=O)[C@H](Cc1c[nH]c2ccccc12)NC(=O)[C@H](Cc1c[nH]c2ccccc12)NC(=O)[C@H](CCCCN)NC(=O)[C@H](CCCCN)NC(=O)[C@H](CCCCN)NC(=O)[C@H](Cc1c[nH]c2ccccc12)NC(=O)[C@H](CCCCN)NC(=O)[C@H](CCCCN)NC(=O)[C@H](Cc1c[nH]c2ccccc12)NC(=O)[C@H](CCCCN)NC(=O)[C@H](CCCCN)NC(=O)[C@@H](NC(=O)[C@@H](NC(=O)[C@H](CCCCN)NC(=O)[C@@H](N)CCCNC(=N)N)[C@@H](C)CC)[C@@H](C)CC)C(=O)N[C@@H](Cc1c[nH]c2ccccc12)C(=O)N[C@@H](Cc1c[nH]c2ccccc12)C(=O)N[C@@H](CCCCN)C(=O)NCCOCCOCC(N)=O` is reported as 1.9 µg/mL (broth microdilution; 25295).
